Measurements collected from several papers.
Each numbered part is a random draw from the data of one study; scales do not carry over between parts.

Study 1 — technique: protein-binding microarray; form: double-stranded DNA, one strand shown; sample: in vitro; tested at: 2200 nM top; setting: 60-bp whole probe; with: salmon DNA 0.4 mg/ml; reference: random background probes; direction: higher = stronger binding; shared flanks, not repeated: GCCTAGCAC … GTCTTGATTCGCTTGACGCTGCTG
Target: Interferon regulatory factor 7, full length, phosphomimetic (IRF7, Homo sapiens, UniProt Q92985, residues 1-503, S471D/S472D/S475D/S476D/S477D/S483D/S484D/S487D)
Sequence of UniProt Q92985 (whole entry, unmodified, looked up): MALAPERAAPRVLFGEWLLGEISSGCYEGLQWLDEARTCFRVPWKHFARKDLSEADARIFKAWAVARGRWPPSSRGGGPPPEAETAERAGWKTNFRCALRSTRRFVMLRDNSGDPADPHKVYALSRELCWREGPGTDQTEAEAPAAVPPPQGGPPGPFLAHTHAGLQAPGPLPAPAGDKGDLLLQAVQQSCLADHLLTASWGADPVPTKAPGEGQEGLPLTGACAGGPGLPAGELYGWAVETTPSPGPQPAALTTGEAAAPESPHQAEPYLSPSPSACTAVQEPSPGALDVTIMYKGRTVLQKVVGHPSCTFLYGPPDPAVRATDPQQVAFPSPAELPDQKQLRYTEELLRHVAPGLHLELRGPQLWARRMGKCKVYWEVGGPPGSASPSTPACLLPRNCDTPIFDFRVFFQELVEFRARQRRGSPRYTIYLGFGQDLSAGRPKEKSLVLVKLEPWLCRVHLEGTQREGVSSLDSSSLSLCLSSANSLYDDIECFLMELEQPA
| Strand | fitted relative affinity [z-score] |
| --- | --- |
| GACGATTCCAGTTTAGAGACGTGCTAG | 0.77 |
| TTAGAACTGGGGTTTCGATCAGTGCTA | 0.764 |
| TCATACATGGGTTTTCAGACTGTGCTA | 0.65 |
| GACGACTTCGGGTTTCGAGACGTGCTA | 1.41 |
| TTAGTTCTCAGTATCGATTAGTGCTAG | 0.995 |
| TTAGATTTCAGTCTCGATGAGTGCTAG | 0.379 |
| GACGATATCGGTATCGGGACGTGCTAG | 0.427 |
| GACGTACTGCTACTGCTGACGTGCTAG | 0.489 |
| GACGGCTTCCTACTGCTGACGTGCTAG | 0.576 |
| TTAGATCTCAGTATCGATCAGTGCTAG | 0.0298 |
| GACGATATCAGTTTCGCGACGTGCTAG | 1.99 |
| ATATATATTATATATACACATGTGCTA | 0.509 |
| GACGGTTCCGGTGTCGGGACGTGCTAG | 0.264 |
| TCACCTCACAGTTTGTAACTGTGCTAG | 1.16 |
| TTAGATTTCTGTTCCGATTAGTGCTAG | 2.65 |
| AATATTATAACACTCTTCTTGTGCTAG | 0.746 |
| TTAGATATGGGGTATCGATTAGTGCTA | 0.451 |
| GCCGGACTGGACACTGGGGACGTGCTA | -1.12 |
| GACGGACAGCTTTTCCTGACGTGCTAG | 0.298 |
| TTTTCATTTTCTTTAACTCAGTGCTAG | 4.97 |
| TTAGGTGTCGGTCTCGGTTAGTGCTAG | 0.308 |

Study 2 — technique: protein binding microarray; form: double-stranded DNA, one strand shown; sample: in vitro; tested at: not given; reference: not given; direction: higher = stronger binding
Target: Histone acetyltransferase KAT6A, winged helix 1, GST fusion (KAT6A, Homo sapiens, UniProt Q92794, residues 1-85)
Setting: 8-mer, flanks averaged, mean of 2 arrays, mostly near background
Residues (chain): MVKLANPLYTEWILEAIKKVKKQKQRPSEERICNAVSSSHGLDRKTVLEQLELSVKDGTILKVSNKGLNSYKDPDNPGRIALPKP
| Strand | E-score |
| --- | --- |
| GGCGAAAA | 0.133 |
| TAGCATGA | -0.273 |
| GTATTTCA | -0.0902 |
| CGGTTCGC | 0.22 |
| TCGCGTCA | 0.0721 |
| CGCACTGC | 0.263 |
| GTCTGAAA | -0.168 |
| CCTCATCG | -0.0786 |
| AGTGCCAG | -0.18 |
| CGTGACAG | 0.0327 |
| AAGGGTTG | -0.106 |
| CTAGTAAG | -0.0849 |
| CCCCAGTC | -0.219 |
| ACTGCCCA | -0.211 |
| AATAAATC | -0.00821 |
| CACGGCTG | 0.278 |

Study 3 — technique: protein-binding microarray; form: double-stranded DNA, one strand shown; sample: in vitro; tested at: not given; direction: higher = stronger binding
Target: Hepatocyte nuclear factor 3-beta, forkhead domain (FOXA2, Homo sapiens, UniProt Q9Y261, residues 142-269)
Setting: k-mer, scored over probes, only values ≥0.25
Residues (chain): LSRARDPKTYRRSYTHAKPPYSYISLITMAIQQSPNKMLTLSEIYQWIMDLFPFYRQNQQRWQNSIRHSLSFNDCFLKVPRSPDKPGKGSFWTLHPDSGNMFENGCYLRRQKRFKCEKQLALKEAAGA
| Strand | E-score |
| --- | --- |
| ATATAAAT | 0.302 |
| GAAATACA | 0.261 |
| TACTAACA | 0.301 |
| CTATACAC | 0.311 |
| AACTATCT | 0.275 |
| ATTTGACA | 0.274 |
| AATCATCA | 0.273 |
| TATACATA | 0.375 |
| AAGAACAA | 0.261 |
| TAACCAAA | 0.302 |
| CTAACGTA | 0.303 |
| CTATATCA | 0.276 |
| TAGCATCA | 0.281 |
| ATATCACA | 0.292 |
| TATAGGAA | 0.347 |
| GGAATACA | 0.365 |
| CTATGTAC | 0.286 |
| ACACCATA | 0.267 |
| ATGACACA | 0.256 |

Study 4 — technique: RNA Bind-n-Seq; form: RNA; sample: in vitro; tested at: 1 µM; setting: whole 134-nt RNA, ends assumed; with: 150 mM KCl; reference: input library; direction: higher = stronger binding
Target: Ras GTPase-activating protein-binding protein 1, RRM domain (G3BP1, Homo sapiens, UniProt Q13283)
Sequence of UniProt Q13283 (whole entry, looked up): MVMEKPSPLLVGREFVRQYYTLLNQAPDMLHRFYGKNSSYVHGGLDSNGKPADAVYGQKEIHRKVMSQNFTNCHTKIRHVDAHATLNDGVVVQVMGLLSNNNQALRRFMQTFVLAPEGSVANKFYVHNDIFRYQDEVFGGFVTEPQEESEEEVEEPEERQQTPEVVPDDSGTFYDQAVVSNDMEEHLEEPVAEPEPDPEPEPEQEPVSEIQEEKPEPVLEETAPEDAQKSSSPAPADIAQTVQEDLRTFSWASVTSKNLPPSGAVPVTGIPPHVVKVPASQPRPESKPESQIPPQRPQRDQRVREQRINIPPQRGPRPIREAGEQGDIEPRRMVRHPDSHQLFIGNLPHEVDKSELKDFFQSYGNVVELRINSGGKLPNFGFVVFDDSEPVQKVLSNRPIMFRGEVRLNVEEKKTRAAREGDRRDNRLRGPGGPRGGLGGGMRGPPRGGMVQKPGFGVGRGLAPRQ
| Strand | log2 enrichment |
| --- | --- |
| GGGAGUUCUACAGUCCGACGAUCCAAGUCCUGUGCUACACAUCGUAUGUACCGAAUCGGGGUUUGGUUUGGGUUUGGGAAAGUAUUAUGUUACGCCGUUCGGAUCUGCACUUCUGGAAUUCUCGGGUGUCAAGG | -0.323 |
| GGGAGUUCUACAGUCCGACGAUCCAAGUCCUGUGCUACACAUCGUAUGUACCGAAUCGGUUUGGUUUGGUUUUUUUGGAAAGUAUUAUGUUACGCCGUUCGGAUCUGCACUUCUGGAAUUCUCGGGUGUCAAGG | -0.289 |
| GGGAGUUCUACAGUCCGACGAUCCUGUGCUACACAUCGUAUGUACCGAAUCGGGGUUUUUUUGGUUUUUUUGGUUUUUUUGGGGAAAGUAUUAUGUUACGCCGUUCGGAUCUGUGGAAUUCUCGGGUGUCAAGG | -0.259 |
| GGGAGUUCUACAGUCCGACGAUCUGGGAGGUGGAUUUUGUUUAUUUUUUUAGCUGAUUUCCAGGGGUGGGAAUUUUUUUUUAAUAUGUGUCAUGAAUAAAGUUGUUUUUGAAAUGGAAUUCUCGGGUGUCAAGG | 1.94 |
| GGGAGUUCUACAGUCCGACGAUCAAGUCCUGUGCUACACAUCGUAUGUACCGAAUCGGCCCCGGGGCCCCGGCCCCGGGAAAGUAUUAUGUUACGCCGUUCGGAUCUGCACUUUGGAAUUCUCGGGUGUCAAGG | -0.707 |
| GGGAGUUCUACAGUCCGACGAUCUCAAGUCCUGUGCUACACAUCGUAUGUACCGAAUCGGUGGUUUGGAAAAAAAGGAAAGUAUUAUGUUACGCCGUUCGGAUCUGCACUUCCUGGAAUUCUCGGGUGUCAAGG | -0.109 |
| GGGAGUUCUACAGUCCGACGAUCUAACUUUAGACGAGGAUCUGAUGGAUAUGGCAGUGGACGUGGAUUUGGGGAUGGCUAUAAUGGGUAUGGAGGAGGACCUGGAGGUGGCAAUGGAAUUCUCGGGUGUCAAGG | -0.89 |
| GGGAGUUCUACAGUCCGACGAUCGUCCUGUGCUACACAUCGUAUGUACCGAAUCGGGAAAAAGGGAAAAAGGAAAAAGGGGAAAGUAUUAUGUUACGCCGUUCGGAUCUGCACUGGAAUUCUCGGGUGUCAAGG | 0.0191 |
| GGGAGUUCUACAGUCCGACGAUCUAACUUUAGAGGAGGAUCUGAUGGAUAUGGCAGUGGACGUGGAUUUGGGGAUGGCUAUGAUGGGUAUGGAGGAGGACCUGGAGGUGGCAAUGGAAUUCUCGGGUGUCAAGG | -0.412 |
| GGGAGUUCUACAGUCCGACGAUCCCUGUGCUACACAUCGUAUGUACCGAAUCGGGGCCCCCCGGGCCCCCCGGGGCCCCCCGGGAAAGUAUUAUGUUACGCCGUUCGGAUCUGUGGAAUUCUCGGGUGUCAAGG | -0.816 |

Repeated from above (study 3):
| Strand | E-score |
| --- | --- |
| AATCATCA | 0.273 |
| TATACATA | 0.375 |
| AAGAACAA | 0.261 |
| TAACCAAA | 0.302 |
